Experimental data from different studies.
Compare with care: the assays were run in different laboratories. Values joined by “and” are separate records of one study, mostly repeats; a detail may differ. Numbers after ± are the reported error.
rep main protease: Replicase polyprotein 1ab, main protease (rep, Severe acute respiratory syndrome coronavirus 2, UniProt P0DTD1)
Spike glycoprotein: Spike glycoprotein (Severe acute respiratory syndrome coronavirus 2, UniProt P0DTC2)
Sequence of UniProt Q5XXP4 (whole entry, looked up): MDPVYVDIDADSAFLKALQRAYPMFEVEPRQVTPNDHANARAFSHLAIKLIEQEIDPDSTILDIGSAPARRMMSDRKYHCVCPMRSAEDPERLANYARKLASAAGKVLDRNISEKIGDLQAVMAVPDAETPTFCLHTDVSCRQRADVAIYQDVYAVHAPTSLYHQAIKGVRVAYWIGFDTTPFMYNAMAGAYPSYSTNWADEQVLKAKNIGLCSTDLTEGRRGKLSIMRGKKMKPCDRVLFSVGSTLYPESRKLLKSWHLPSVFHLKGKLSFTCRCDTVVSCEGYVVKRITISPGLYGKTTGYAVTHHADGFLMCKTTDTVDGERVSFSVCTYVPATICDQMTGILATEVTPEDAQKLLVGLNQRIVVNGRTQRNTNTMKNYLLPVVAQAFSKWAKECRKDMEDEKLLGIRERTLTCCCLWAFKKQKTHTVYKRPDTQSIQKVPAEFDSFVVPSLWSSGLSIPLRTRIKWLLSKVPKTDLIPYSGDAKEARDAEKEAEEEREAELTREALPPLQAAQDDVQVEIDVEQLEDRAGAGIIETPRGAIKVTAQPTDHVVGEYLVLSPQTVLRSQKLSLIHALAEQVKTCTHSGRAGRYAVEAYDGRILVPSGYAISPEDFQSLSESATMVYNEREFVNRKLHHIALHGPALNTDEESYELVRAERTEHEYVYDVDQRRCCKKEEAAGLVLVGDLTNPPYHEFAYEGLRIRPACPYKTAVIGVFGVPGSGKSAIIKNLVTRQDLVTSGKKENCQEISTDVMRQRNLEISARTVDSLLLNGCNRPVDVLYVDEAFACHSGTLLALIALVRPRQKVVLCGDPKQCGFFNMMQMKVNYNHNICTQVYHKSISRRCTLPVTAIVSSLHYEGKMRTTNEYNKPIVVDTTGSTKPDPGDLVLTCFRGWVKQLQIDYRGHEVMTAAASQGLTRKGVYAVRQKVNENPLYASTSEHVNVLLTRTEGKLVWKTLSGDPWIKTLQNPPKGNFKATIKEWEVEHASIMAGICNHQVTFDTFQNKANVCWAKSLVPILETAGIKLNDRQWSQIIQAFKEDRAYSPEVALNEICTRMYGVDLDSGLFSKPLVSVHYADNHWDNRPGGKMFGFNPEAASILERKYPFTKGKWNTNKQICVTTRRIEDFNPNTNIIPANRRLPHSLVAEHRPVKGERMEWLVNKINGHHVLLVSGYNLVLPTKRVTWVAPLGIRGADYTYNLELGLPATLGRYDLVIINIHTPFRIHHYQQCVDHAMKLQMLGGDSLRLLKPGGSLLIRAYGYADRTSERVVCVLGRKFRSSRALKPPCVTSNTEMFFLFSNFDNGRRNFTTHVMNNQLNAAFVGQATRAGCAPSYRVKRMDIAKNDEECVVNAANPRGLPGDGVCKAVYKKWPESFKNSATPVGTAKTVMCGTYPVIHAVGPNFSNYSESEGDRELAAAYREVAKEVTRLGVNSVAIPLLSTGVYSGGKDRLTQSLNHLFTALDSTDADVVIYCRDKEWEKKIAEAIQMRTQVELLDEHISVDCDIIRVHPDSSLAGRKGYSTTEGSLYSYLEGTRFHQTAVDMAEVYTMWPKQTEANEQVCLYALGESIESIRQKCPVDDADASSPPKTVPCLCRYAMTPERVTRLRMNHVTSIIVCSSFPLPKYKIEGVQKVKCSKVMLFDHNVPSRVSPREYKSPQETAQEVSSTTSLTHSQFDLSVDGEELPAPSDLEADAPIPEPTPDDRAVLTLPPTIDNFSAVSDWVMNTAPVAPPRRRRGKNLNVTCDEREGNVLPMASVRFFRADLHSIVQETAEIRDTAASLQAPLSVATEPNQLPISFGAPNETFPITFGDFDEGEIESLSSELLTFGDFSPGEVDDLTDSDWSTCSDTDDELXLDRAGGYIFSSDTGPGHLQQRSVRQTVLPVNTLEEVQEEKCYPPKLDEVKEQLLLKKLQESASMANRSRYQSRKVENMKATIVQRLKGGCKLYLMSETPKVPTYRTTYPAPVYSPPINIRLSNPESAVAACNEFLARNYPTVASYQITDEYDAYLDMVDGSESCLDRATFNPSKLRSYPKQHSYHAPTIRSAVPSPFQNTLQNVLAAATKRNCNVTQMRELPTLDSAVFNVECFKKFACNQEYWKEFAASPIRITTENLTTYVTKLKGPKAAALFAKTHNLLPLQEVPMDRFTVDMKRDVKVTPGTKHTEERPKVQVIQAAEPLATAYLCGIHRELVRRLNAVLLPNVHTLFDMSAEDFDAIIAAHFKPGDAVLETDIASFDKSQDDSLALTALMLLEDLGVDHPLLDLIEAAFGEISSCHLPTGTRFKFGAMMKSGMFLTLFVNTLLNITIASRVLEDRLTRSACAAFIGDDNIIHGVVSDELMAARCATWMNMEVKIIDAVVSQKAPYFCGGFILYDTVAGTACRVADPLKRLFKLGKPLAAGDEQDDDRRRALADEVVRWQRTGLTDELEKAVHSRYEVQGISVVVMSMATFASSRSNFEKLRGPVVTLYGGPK
Sequence of UniProt P9WGJ9 (whole entry, looked up): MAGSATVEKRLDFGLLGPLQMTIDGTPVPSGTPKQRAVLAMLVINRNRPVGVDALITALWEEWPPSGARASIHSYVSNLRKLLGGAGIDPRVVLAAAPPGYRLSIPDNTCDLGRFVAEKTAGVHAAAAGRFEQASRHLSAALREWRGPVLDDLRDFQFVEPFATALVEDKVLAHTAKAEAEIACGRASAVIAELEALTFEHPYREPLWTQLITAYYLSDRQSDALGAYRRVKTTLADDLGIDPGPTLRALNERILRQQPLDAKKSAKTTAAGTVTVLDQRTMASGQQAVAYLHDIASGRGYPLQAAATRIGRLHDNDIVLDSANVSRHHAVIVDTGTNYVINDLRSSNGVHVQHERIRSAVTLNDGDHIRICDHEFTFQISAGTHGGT
Sequence of UniProt P78348 (whole entry, looked up): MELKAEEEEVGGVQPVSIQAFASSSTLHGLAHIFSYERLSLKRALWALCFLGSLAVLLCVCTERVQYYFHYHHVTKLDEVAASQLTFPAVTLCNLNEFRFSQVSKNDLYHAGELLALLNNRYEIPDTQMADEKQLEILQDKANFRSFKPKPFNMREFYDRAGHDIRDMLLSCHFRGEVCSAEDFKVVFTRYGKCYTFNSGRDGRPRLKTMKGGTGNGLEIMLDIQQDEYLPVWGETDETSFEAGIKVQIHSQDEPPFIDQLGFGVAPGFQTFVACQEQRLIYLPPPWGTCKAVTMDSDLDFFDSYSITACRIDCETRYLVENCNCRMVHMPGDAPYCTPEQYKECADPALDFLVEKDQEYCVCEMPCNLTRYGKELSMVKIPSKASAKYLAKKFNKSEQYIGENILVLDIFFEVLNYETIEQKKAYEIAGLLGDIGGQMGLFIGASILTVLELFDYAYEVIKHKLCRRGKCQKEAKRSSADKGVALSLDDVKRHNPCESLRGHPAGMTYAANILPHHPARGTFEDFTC

For `O=C(N[C@@H]1CC[C@@H]2CCN(c3nc4[nH]ncc4c(=O)[nH]3)[C@H]1C2)c1ccc2c(c1)C(=O)NCC2`, the inhibition was 11.2% (rep main protease; enzyme activity, inhibitor; 5 µM, run 2).
`CC[C@H](C)[C@H](NC(=O)[C@H](CC(C)C)NC(=O)[C@H](Cc1c[nH]c2ccccc12)NC(=O)[C@H](CCC(N)=O)NC(=O)[C@@H](NC(=O)[C@H](Cc1ccccc1)NC(=O)[C@H](C)NC(=O)[C@H](CCCCNC(=O)COCCOCCNC(=O)COCCOCCNC(=O)CC[C@H](NC(=O)CCCCCCCCCCCCCCCCCCC(=O)O)C(=O)O)NC(=O)[C@H](CCC(N)=O)NC(=O)[C@H](C)NC(=O)[C@@H](NC(=O)[C@H](CCCCN)NC(=O)[C@H](CC(=O)O)NC(=O)[C@H](CC(C)C)NC(=O)C(C)(C)NC(=O)[C@@H](NC(=O)[C@H](CO)NC(=O)[C@H](Cc1ccc(O)cc1)NC(=O)[C@H](CC(=O)O)NC(=O)[C@H](CO)NC(=O)[C@@H](NC(=O)[C@H](Cc1ccccc1)NC(=O)[C@@H](NC(=O)CNC(=O)[C@H](CCC(=O)O)NC(=O)C(C)(C)NC(=O)[C@@H](N)Cc1ccc(O)cc1)[C@@H](C)O)[C@@H](C)O)[C@@H](C)CC)[C@@H](C)CC)C(C)C)C(=O)N[C@@H](C)C(=O)NCC(=O)NCC(=O)N1CCC[C@H]1C(=O)N[C@@H](CO)C(=O)N[C@@H](CO)C(=O)NCC(=O)N[C@@H](C)C(=O)N1CCC[C@H]1C(=O)N1CCC[C@H]1C(=O)N1CCC[C@H]1C(=O)N[C@@H](CO)C(N)=O`: “subjects with adverse events” 42.9% (refers to: Nausea; healthy subjects; 5/5/8/10 mg titrated, multiple ascending dose).
With `CCN(CC)CCNC(=O)c1ccc(-c2nc(CN3CCc4ccccc43)c(C)o2)cc1` the efficacy was 108% (SARS-CoV-2; cytopathic effect; USA_WA1/2020; round 2, 5-point).
The inhibition of `O=C(NCC[C@@H]1c2ccccc2CCN1C(=O)c1ncnc2[nH]ccc12)c1ccc[n+]([O-])c1` is reported as 14.1% (rep main protease; enzyme activity, inhibitor; 5 µM).
The inhibition of `Nc1ncnc2c([C@@H]3N[C@H](CO)[C@@H](O)[C@H]3O)c[nH]c12` is reported as 6% (Middle East respiratory syndrome-related coronavirus; viral replication; Vero C1008, Jordan N3; 1.6 µM).
For `CC(=O)NO`, the inhibition was 0.384% (rep main protease; reporter gene (Gaussia luciferase), inhibitor; 20 µM).
`Cc1[nH]nc2c(C(=O)N3CCC4(CCC[C@H]4NC(=O)C4=CN=C5NNN=C5C4)CC3)cccc12` gave an inhibition of 10% (rep main protease; enzyme activity, inhibitor; 5 µM, mean of runs).
For `CNC(=O)[C@@H](NC(=O)[C@H](CC(C)C)[C@H](O)C(=O)NO)C(C)(C)C`, the remaining activity was 92% and 91% and 93% (Daboia russelii venom proteases (SVMP); protease activity, inhibitor; KA population; 0.01 µM, with: azocasein substrate; baseline: venom alone).
`CC(C)CC(=O)N[C@H](C(=O)N[C@H](C(=O)N[C@@H](CC(C)C)[C@@H](O)CC(=O)N[C@@H](C)C(=O)N[C@@H](CC(C)C)[C@@H](O)CC(=O)O)C(C)C)C(C)C` gave an inhibition of 0.381% (rep main protease; reporter gene (Gaussia luciferase), inhibitor; 20 µM).
For `Cc1ncccc1-c1nc2cc(C(=O)NCCCc3ccccc3)ccc2o1`, the efficacy was 51% (SARS-CoV-2; cytopathic effect; USA_WA1/2020; retest, 8-point, duplicates).
`Cn1cnc(Cn2c(=O)[nH]/c(=N\c3cc4cn(C)nc4cc3Cl)n(Cc3cc(F)c(F)cc3F)c2=O)n1`: “patients with adverse event” 0% (human, normal renal function; oral, 375 mg, hypertriglyceridaemia TEAE, Moderate severity).
The inhibition of `O=C(CC1CC(=O)NC(=O)C1)NC[C@@H]1CC2(CCC2)CN1C(=O)[C@@H]1CCCC12CCOCC2` is reported as 13.7% (rep main protease; enzyme activity, inhibitor; 5 µM, run 2).
Under “lowest cytotoxic concentration”, `CC[C@H](C)[C@H](NC(=O)[C@H](CO)NC(=O)[C@@H]1CCCN1C(=O)[C@H](CO)NC(=O)[C@H](CCSC)NC(=O)CNC(=O)CNC(=O)CNC(=O)[C@H](CCCCN)NC(=O)[C@H](CCCCN)NC(=O)[C@H](CC(C)C)NC(=O)[C@H](CC(C)C)NC(=O)[C@H](CC(C)C)NC(=O)CNC(=O)[C@H](CC(C)C)NC(=O)[C@H](CC(C)C)NC(=O)[C@H](CC(C)C)NC(=O)[C@H](CCCCN)NC(=O)[C@H](CCCCN)NC(=O)[C@H](CC(C)C)NC(=O)[C@@H](N)CCCCN)C(=O)N[C@@H](CC(C)C)C(=O)N[C@@H](CCCCN)C(=O)N[C@@H](Cc1c[nH]cn1)C(=O)N[C@@H](Cc1c[nH]c2ccccc12)C(=O)N[C@@H](CO)C(=O)N[C@@H](CCCNC(=N)N)C(=O)N[C@@H](CCC(N)=O)C(=O)O` is recorded as > 256 µg/mL (HEK-293T; cell death; 24 h, 10% cell death).
For `CC[C@H](C)[C@H](NC(=O)[C@@H]1CCCN1C(=O)[C@H](C)NC(=O)[C@@H]1CSSC[C@@H]2NC(=O)[C@H](CC(=O)O)NC(=O)[C@H](CCCNC(=N)N)NC(=O)[C@H](CCC(=O)O)NC(=O)[C@H](CCCNC(=N)N)NC(=O)CNC(=O)[C@H](CC(=O)O)NC(=O)[C@@H]3CSSC[C@H](NC(=O)[C@H](CCC(=O)O)NC(=O)[C@H](CC(C)C)NC(=O)CNC(=O)[C@H](C)NC(=O)[C@H](CSSC[C@H](NC(=O)[C@H](Cc4ccccc4)NC(=O)[C@@H](N)CO)C(=O)N[C@@H](CC(C)C)C(=O)N[C@@H](C(C)C)C(=O)N[C@@H](CCCCN)C(=O)N[C@@H](Cc4c[nH]c5ccccc45)C(=O)N[C@@H](CCCCN)C(=O)N[C@@H](CCC(N)=O)C(=O)N3)NC2=O)C(=O)N[C@@H](Cc2c[nH]c3ccccc23)C(=O)N[C@@H](CCCCN)C(=O)N[C@@H](CCCNC(=N)N)C(=O)N[C@@H](CO)C(=O)NCC(=O)N[C@@H](CO)C(=O)N[C@@H](CCCCN)C(=O)N[C@@H](CO)C(=O)N[C@@H](CO)C(=O)N[C@@H](C(C)C)C(=O)N1)C(=O)N[C@H](C(=O)O)[C@@H](C)O`, the deactivation slowing was 2.1 ± 0.4 fold (Acid-sensing ion channel 1 (ASIC1, Homo sapiens, UniProt P78348); ion current, outside-out patch clamp; HEK-293T; 1 µM; baseline: same patch before toxin).
For `Cl.Clc1ccc(Cn2c(CN3CCCC3)nc3ccccc32)cc1`, the inhibition was 0.64% (rep main protease; reporter gene (Gaussia luciferase), inhibitor; 20 µM).
`Cc1nc(C)c(CCC(=O)N2C[C@]34CCC[C@@]3(C2)CN(C(=O)[C@@H]2CCC(=O)NC2)C4)c(=O)[nH]1` gave an inhibition of 13.3% (rep main protease; enzyme activity, inhibitor; 5 µM, mean of runs).
`NC[C@H]1O[C@H](O[C@H]2[C@H](O)[C@@H](O[C@H]3O[C@H](CO)[C@@H](O)[C@H](N)[C@H]3O)[C@H](N)C[C@@H]2N)[C@H](N)C[C@@H]1O` has a koff of 0.0122 s⁻¹ (Spike glycoprotein; binding, BLI).
With `CC(C)[C@H](N)C(=O)N1CCC[C@H]1B(O)O.CS(=O)(=O)O` the inhibition was -0.347% (rep main protease; reporter gene (mKate2), inhibitor; 20 µM).
`C[C@H]1CC[C@@]2(OC1)O[C@H]1C[C@H]3[C@@H]4CC[C@@H]5C[C@@H](O[C@@H]6O[C@H](CO)[C@H](O)[C@H](O)[C@H]6O[C@@H]6O[C@H](CO)[C@@H](O)[C@H](O)[C@H]6O)CC[C@]5(C)[C@H]4CC[C@]3(C)[C@H]1[C@@H]2C` has a kon of 33100 M⁻¹ s⁻¹ (Spike glycoprotein; binding).
`CC(C)C[C@H](NC(=O)[C@@H](N)CO)C(=O)N[C@@H](CCC(=O)O)C(=O)N[C@H](C(=O)N[C@H](C(=O)N[C@@H](CCC(=O)O)C(=O)N[C@@H](C)C(=O)N[C@@H](CC(=O)O)C(=O)O)[C@@H](C)O)C(C)C` gave a koff of 0.00089 ± 0.000123 s⁻¹ (Transcriptional regulatory protein EmbR (embR, Mycobacterium tuberculosis, UniProt P9WGJ9); biolayer interferometry).
`Z-FA-FMK` has an inhibition of 9.73% (rep main protease; enzyme activity, mKate2 fluorescence reporter; SARS-CoV-2; 20 µM).
`COc1cccc(-c2nc(C(=O)NCC=CS(C)(=O)=O)c(C)[nH]2)c1` gave a kinact/KI of 460 ± 52 M⁻¹ s⁻¹ (Polyprotein P1234, nsP2 protease domain (Chikungunya virus, UniProt Q5XXP4); time-dependent inhibitor).

Some of these lines once more:
Under “lowest cytotoxic concentration”, `CC[C@H](C)[C@H](NC(=O)[C@H](CO)NC(=O)[C@@H]1CCCN1C(=O)[C@H](CO)NC(=O)[C@H](CCSC)NC(=O)CNC(=O)CNC(=O)CNC(=O)[C@H](CCCCN)NC(=O)[C@H](CCCCN)NC(=O)[C@H](CC(C)C)NC(=O)[C@H](CC(C)C)NC(=O)[C@H](CC(C)C)NC(=O)CNC(=O)[C@H](CC(C)C)NC(=O)[C@H](CC(C)C)NC(=O)[C@H](CC(C)C)NC(=O)[C@H](CCCCN)NC(=O)[C@H](CCCCN)NC(=O)[C@H](CC(C)C)NC(=O)[C@@H](N)CCCCN)C(=O)N[C@@H](CC(C)C)C(=O)N[C@@H](CCCCN)C(=O)N[C@@H](Cc1c[nH]cn1)C(=O)N[C@@H](Cc1c[nH]c2ccccc12)C(=O)N[C@@H](CO)C(=O)N[C@@H](CCCNC(=N)N)C(=O)N[C@@H](CCC(N)=O)C(=O)O` is recorded as > 256 µg/mL (HEK-293T; cell death; 24 h, 10% cell death).
The inhibition of `Nc1ncnc2c([C@@H]3N[C@H](CO)[C@@H](O)[C@H]3O)c[nH]c12` is reported as 6% (Middle East respiratory syndrome-related coronavirus; viral replication; Vero C1008, Jordan N3; 1.6 µM).
